Measurements from different studies.
Each numbered part is a random draw from the data of one study; scales do not carry over between parts. Substitutions count along the parent as printed.

Study 1 — method: DHFR PCA, deep sequencing; medium: yeast; added: (+)-ABA 0.0091 µM; reference: wild-type fitted maximum; reading: higher = stronger binding; endpoint: relative binding score
Target: ABI1, truncated, D143A, DHFR fusion (Arabidopsis thaliana)
Notes: methotrexate growth selection, single substitutions
Parent: PYL1, truncated, DHFR fusion (Arabidopsis thaliana); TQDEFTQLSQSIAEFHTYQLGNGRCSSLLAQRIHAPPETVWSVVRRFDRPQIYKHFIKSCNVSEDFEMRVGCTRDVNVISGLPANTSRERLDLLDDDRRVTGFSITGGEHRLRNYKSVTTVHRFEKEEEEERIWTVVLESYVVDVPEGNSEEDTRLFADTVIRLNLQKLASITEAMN; partner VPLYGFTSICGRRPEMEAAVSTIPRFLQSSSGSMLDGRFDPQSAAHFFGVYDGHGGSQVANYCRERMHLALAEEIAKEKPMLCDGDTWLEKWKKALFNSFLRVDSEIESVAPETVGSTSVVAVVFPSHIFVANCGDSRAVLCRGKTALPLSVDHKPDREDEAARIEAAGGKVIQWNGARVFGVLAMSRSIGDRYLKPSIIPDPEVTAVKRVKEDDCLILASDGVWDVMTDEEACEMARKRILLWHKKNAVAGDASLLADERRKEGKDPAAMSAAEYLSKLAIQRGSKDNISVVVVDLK
R132S: 48.5%
R69T: 19.3%
Q31D: 0.534%
G81L: 8.37%
S171P: 9.33%
G23A: 4.72%
G102N: -9.83%
N85R: 56.9%
V40G: -3.21%
F66L: -1.25%
D144T: -1.07%
S63Y: 5.57%
E38R: -0.526%
L166N: -2.02%
I79K: -0.517%
D65R: 1.67%
H34Y: 33.8%
H16R: -1.25%
G71I: 0.155%
S11I: 27.7%
S59W: 9.04%
G102Y: -9.81%
T135N: 1.76%
I162L: 0.29%
E125N: 20.4%

Study 2 — method: RNAcompete; molecule type: RNA; medium: in vitro; tested at: 20 nM; notes: 7-mer, probes averaged, single round; reference: mean of 7-mers; reading: higher = stronger binding; endpoint: 7-mer Z-score
Target: PABPC1L2, full length, GST fusion (mouse, UniProt A0ABA7IW68)
Target sequence (chain): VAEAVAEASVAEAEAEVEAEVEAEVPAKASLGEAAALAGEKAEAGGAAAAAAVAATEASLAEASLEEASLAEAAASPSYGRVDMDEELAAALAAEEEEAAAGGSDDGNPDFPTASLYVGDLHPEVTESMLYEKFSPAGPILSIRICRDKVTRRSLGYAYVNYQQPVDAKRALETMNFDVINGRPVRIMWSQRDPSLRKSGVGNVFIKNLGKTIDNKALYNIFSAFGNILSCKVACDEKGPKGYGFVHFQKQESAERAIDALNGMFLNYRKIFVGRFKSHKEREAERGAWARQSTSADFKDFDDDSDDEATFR
UGGGCUU: -0.0047
AGCCACU: -0.15
CUCGUAA: -0.157
UAAUUCG: -0.193
CUGAGGU: -0.15
CUUGGCA: 0.0334
CACGUCG: -0.244
GUAGUUG: -0.264
AUGUGGG: 0.548
CCCACCU: -0.465
GGGCAGU: 0.43
UACGAUC: -0.18
GCGAGCA: 0.0352
CUCCCCA: -0.242
AGAUACC: -0.383
CUUCUCU: -0.351
GGUUUAA: -0.204
AACUCGA: 0.0279
GAUUACC: -0.271
UUGCUUG: -0.374
CUGGUCG: -0.364
UACAAGG: 0.0352
CGAUCCA: -0.159
UGAUGUU: -0.405
UAGUAUU: -0.199

Study 3 — target: CEBPB, bZIP domain (human); method: DHFR protein complementation; medium: yeast; reference: wild-type JUN-FOS pair; reading: higher = stronger binding; endpoint: binding fitness
Notes: single substitutions, most at no-binding floor
Parent: JUN, bZIP domain (human); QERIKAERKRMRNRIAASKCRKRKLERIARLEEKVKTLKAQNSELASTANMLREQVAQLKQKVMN; partner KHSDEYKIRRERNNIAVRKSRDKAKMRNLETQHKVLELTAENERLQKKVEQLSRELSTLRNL
R30Q: -1.05 natural log
A40E: -1.27 natural log
E54P: -1.47 natural log
Q41R: -1.31 natural log
R53Q: -1.01 natural log
Q41S: -1.51 natural log
L52M: -1.45 natural log
S43C: -1.22 natural log
A57K: -1.36 natural log
A29N: -1.33 natural log
T37W: -1.24 natural log
T37E: -1.05 natural log
E33L: -1.34 natural log
A57Q: -1.33 natural log
L52T: -1.52 natural log
A49R: -1.34 natural log
K36G: -1.42 natural log
A49E: -1.39 natural log
V56P: -1.52 natural log
L52Y: -1.58 natural log
L52C: -1.49 natural log
A29L: -1.34 natural log
T48E: -1.42 natural log
A46P: -1.48 natural log
L31K: -1.24 natural log

Study 4 — method: protein-binding microarray; molecule type: double-stranded DNA, one strand shown; medium: in vitro; tested at: 2540 nM top; notes: 60-bp whole probe; added: salmon DNA 0.4 mg/ml; reference: random background probes; reading: higher = stronger binding; endpoint: fitted relative affinity; shared flanks, not repeated: GCCTAGCAC … GTCTTGATTCGCTTGACGCTGCTG
Target: Interferon regulatory factor 3, full length, phosphomimetic (IRF3, Homo sapiens, UniProt Q14653, residues 1-427, S386D/S396D/S398D/S402D/T404D/S405D)
Chain of UniProt Q14653 (whole entry, unmodified, looked up): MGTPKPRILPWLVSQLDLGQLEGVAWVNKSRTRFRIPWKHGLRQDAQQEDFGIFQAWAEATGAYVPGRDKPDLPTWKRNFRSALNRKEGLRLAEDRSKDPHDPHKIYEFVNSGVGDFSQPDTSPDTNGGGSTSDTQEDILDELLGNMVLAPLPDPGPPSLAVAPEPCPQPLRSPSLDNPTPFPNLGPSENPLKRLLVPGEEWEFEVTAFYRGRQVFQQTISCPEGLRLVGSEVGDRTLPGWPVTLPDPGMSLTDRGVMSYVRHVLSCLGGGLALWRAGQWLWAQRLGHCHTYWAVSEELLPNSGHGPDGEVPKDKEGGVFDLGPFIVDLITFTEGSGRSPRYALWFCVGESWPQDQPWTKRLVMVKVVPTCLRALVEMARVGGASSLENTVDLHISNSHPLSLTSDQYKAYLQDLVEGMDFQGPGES
TCATCACTCAATCTCAAACTGTGCTAG: 0.323 z-score
GTCGAACTGGGGACTGGAGACGTGCTA: -0.341 z-score
TTAGGTTTCCTTATCCTTTGGTGCTAG: 8.13 z-score
TTACCTTTTCACTTTACACAGTGCTAG: 7.53 z-score
AACGGTTTCGACTATCGGGACGTGCTA: 2.79 z-score
TCTAATTAGAATTTAAAACAGTGCTAG: 0.665 z-score
TCATAGTTGTGTCTTGCACTGTGCTAG: -0.0301 z-score
TCAATGTTCCCTATATAACTGTGCTAG: 1.59 z-score
TCACGTTTACATTTTCCACTGTGCTAG: 1.62 z-score
TTAGGACTGCTTATCCTTGAGTGCTAG: -0.359 z-score
TTCAATTCCTGAAATCTCTTTGTGCTA: 0.0915 z-score
TTAGAGTTCAGACTGGATTAGTGCTAG: -0.352 z-score
TGGTGCTTAGTATTTTTTTCCGTGCTA: -0.245 z-score
TTAGGTTCCATTTTCCTTTAGTGCTAG: 7.02 z-score
TTAGGACTGCTTTTCCTTTCGTGCTAG: 1.38 z-score
TTAGATTTCAGTCTCGATAAGTGCTAG: 2.52 z-score
TTAGGTTTCGACTATGGGTTAGTGCTA: 2.24 z-score
GACGATAGCAGTCTCGAGACGTGCTAG: -0.548 z-score
GACGATTTCAGTATCGACACGTGCTAG: 2.45 z-score

Study 5 — target: CCND3, cyclin fold, Cln2 fusion (human); method: yeast growth competition, sequencing; medium: yeast; notes: weak parent motif; reference: not given; reading: higher = stronger binding; endpoint: normalised enrichment score
Parent: DBF4B docking peptide (human); LGYLYLLLTQSLW; partner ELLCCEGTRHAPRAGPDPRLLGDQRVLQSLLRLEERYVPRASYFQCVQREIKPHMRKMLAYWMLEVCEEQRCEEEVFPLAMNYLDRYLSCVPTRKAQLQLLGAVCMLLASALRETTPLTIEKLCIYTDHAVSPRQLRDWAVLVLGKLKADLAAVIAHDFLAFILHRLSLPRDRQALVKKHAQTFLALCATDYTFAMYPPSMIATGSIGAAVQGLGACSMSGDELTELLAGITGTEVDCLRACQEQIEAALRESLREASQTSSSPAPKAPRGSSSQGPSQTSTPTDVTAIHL
L1A: 0.42
L4A: -0.0451
L6A: 0.397
T9A: 0.0246
Q10A: -0.223
L7A: 0.0778
Y3A: -0.306

For quick reference, copied from above (study 2):
CCCACCU: -0.465
GGGCAGU: 0.43
UACGAUC: -0.18
GCGAGCA: 0.0352
CUCCCCA: -0.242
AGAUACC: -0.383
CUUCUCU: -0.351
GGUUUAA: -0.204
AACUCGA: 0.0279
GAUUACC: -0.271
UUGCUUG: -0.374
CUGGUCG: -0.364
UACAAGG: 0.0352
CGAUCCA: -0.159
